# Measurements collected from several papers.
# Compare with care: the assays were run in different laboratories. Numbers after ± are the reported error.
SMILES,assay,system,setting,how to read,measurement,result
CCOC(=O)c1sc(Nc2ncccn2)nc1-c1ccccn1,,human liver microsomes,60 min,,remaining parent,63.1 area %
CC[N+]1(C)CCN(c2ccc(NC(=O)c3cccc(C)n3)cc2)CC1,,pooled BALB/c mouse plasma,"1 µM, 0 min",,remaining compound,100%
CC(C)C[C@H](NC(=O)[C@@H](N)C(C)C)C(=O)N[C@@H](CCCNC(=N)N)C(=O)N[C@@H](Cc1c[nH]c2ccccc12)C(=O)N[C@@H](CO)C(=O)N[C@@H](CCCNC(=N)N)C(=O)N[C@@H](CCCCN)C(=O)N[C@@H](CC(C)C)C(=O)N1CCC[C@H]1C(=O)N[C@@H](CS)C(=O)N[C@H](C(=O)N[C@@H](CO)C(N)=O)C(C)C,"12G5 competition, SUP-T1 cells",human plasma,"concentration not given, 2 h",,remaining activity,24 ± 4%
CCOc1ccc2ccc(=O)oc2c1,,human liver microsomes,"1 µM, 20 min, pH 7.4",,remaining compound,26.3%
O=C1CC2(CCCC2)CC(=O)N1CCCCN1CCN(c2ncccn2)CC1,LC-MS,Sprague-Dawley rat liver microsomes,"10 µM, 60 min, pH 7.4, with: NADPH",baseline: time 0,remaining parent compound,41%
CSCC[C@H](NC(=O)[C@H](CCCCN)NC(=O)[C@H](CCCNC(=N)N)NC(=O)[C@H](CO)NC(=O)[C@H](Cc1c[nH]c2ccccc12)NC(=O)[C@H](CCCNC(=N)N)NC(=O)[C@H](CC(C)C)NC(=O)[C@@H](N)CCSC)C(=O)N1CCC[C@H]1C(=O)N[C@@H](CS)C(=O)N[C@H](C(=O)N[C@@H](CO)C(N)=O)C(C)C,"12G5 competition, SUP-T1 cells",human plasma,"concentration not given, 2 h",,remaining activity,4 ± 0.5%
CC(C)C[C@@H]1NC(=O)CNC(=O)[C@H](CC(N)=O)NC(=O)[C@H](CCCNC(=N)N)NC(=O)[C@H]([C@@H](C)O)NC(=O)[C@@H]2CSSC[C@@H]3NC(=O)[C@H]([C@@H](C)O)NC(=O)CNC(=O)CNC(=O)[C@H](C(C)C)NC(=O)[C@@H]4CSSC[C@H](NC(=O)[C@H]([C@@H](C)O)NC(=O)[C@H](CSSC[C@H](NC(=O)[C@H](C(C)C)NC(=O)[C@@H]5CCCN5C1=O)C(=O)NCC(=O)N[C@@H](CCC(=O)O)C(=O)N[C@@H]([C@@H](C)O)C(=O)N4)NC(=O)CNC(=O)[C@@H]1CCCN1C(=O)[C@H]([C@@H](C)O)NC(=O)[C@H](CC(N)=O)NC3=O)C(=O)N[C@@H](CO)C(=O)N[C@@H](Cc1c[nH]c3ccccc13)C(=O)N1CCC[C@H]1C(=O)N[C@@H](C(C)C)C(=O)N2,HPLC,ammonium bicarbonate 0.1 M,"180 µM, 7 days, pH 9.0, 37 °C, deamidation stability",,remaining peptide,77 ± 1%
Cn1cncc1-c1c(F)cncc1NC(=O)c1c(N)nn2cc(F)cnc12,,human EDTA plasma,"15 ng/mL, 6 h, room temperature, low QC",,remaining compound,105%
N#Cc1ccc(Nc2nc(N)cc(Oc3c(F)cc(-c4ccc(C#N)cc4)cc3F)n2)cc1,,monkey plasma,"1 µM, 5.00 h, pH 7.4, 37 °C",,remaining compound,78.5%
CC(C)C[C@@H]1NC(=O)[C@H](CCCCN)NC(=O)[C@H](CC(N)=O)NC(=O)[C@H](CCCNC(=N)N)NC(=O)[C@H]([C@@H](C)O)NC(=O)[C@@H]2CSSC[C@@H]3NC(=O)[C@H]([C@@H](C)O)NC(=O)CNC(=O)CNC(=O)[C@H](C(C)C)NC(=O)[C@@H]4CSSC[C@H](NC(=O)[C@H](CCCCN)NC(=O)[C@H](CSSC[C@H](NC(=O)[C@H](C(C)C)NC(=O)[C@@H]5CCCN5C1=O)C(=O)NCC(=O)N[C@@H](CCC(=O)O)C(=O)N[C@@H]([C@@H](C)O)C(=O)N4)NC(=O)CNC(=O)[C@@H]1CCCN1C(=O)[C@H]([C@@H](C)O)NC(=O)[C@H](CC(N)=O)NC3=O)C(=O)N[C@@H](CO)C(=O)N[C@@H](Cc1c[nH]c3ccccc13)C(=O)N1CCC[C@H]1C(=O)N[C@@H](C(C)C)C(=O)N2,HPLC,ammonium bicarbonate,"180 µM, 14 days, pH 9.0, 25 °C, deamidation stability",,remaining peptide,98.4 ± 0.5%
CSCC[C@H](NC(=O)CN)C(=O)N[C@@H](CCCNC(=N)N)C(=O)N[C@@H](Cc1c[nH]c2ccccc12)C(=O)N[C@@H](CO)C(=O)N[C@@H](CCCNC(=N)N)C(=O)N[C@@H](CCCCN)C(=O)N[C@@H](CCSC)C(=O)N1CCC[C@H]1C(=O)N[C@@H](CS)C(=O)N[C@H](C(=O)N[C@@H](CO)C(N)=O)C(C)C,"12G5 competition, SUP-T1 cells",human plasma,"20 µM, 8 h, 37 °C",,remaining activity,30 ± 3%
COc1cc(C2C3=C(COC3=O)N(CCO)c3cc4c(cc32)CCC4)cc(OC)c1OC (centres unmarked),MS,human liver microsomes,"10 µM, 0, 30, 60 min",,remaining parent compound,10%
Cc1cc(C(=O)NC(C)(C)COc2cccc3c2C(N)=NS(=O)(=O)N3)cc(C)n1,LC-MS,human liver microsomes,"10 µM, 20 min, pH 7.4, with: NADPH",baseline: time 0,remaining parent compound,100%
CSCC[C@H](N)C(=O)N[C@H](CC(C)C)C(=O)N[C@@H](CCCNC(=N)N)C(=O)N[C@@H](Cc1c[nH]c2ccccc12)C(=O)N[C@@H](CO)C(=O)N[C@@H](CCCNC(=N)N)C(=O)N[C@@H](CCCCN)C(=O)N[C@@H](CC(C)C)C(=O)N1CCC[C@H]1C(=O)N[C@@H](CS)C(=O)N[C@H](C(=O)N[C@@H](CO)C(N)=O)C(C)C,"12G5 competition, SUP-T1 cells",human plasma,"20 µM, 2 h, 37 °C",,remaining activity,71 ± 2%

# A few entries again:
SMILES,assay,system,setting,how to read,measurement,result
CC(C)C[C@H](NC(=O)[C@@H](N)C(C)C)C(=O)N[C@@H](CCCNC(=N)N)C(=O)N[C@@H](Cc1c[nH]c2ccccc12)C(=O)N[C@@H](CO)C(=O)N[C@@H](CCCNC(=N)N)C(=O)N[C@@H](CCCCN)C(=O)N[C@@H](CC(C)C)C(=O)N1CCC[C@H]1C(=O)N[C@@H](CS)C(=O)N[C@H](C(=O)N[C@@H](CO)C(N)=O)C(C)C,"12G5 competition, SUP-T1 cells",human plasma,"concentration not given, 2 h",,remaining activity,24 ± 4%
